Results of several laboratories.
Parts stem from different laboratories: compare values within a part only.

Study 1
Target: Histone acetyltransferase KAT6A, winged helix 1, GST fusion (KAT6A, Homo sapiens, UniProt Q92794, residues 1-85)
Method: protein binding microarray
Form: double-stranded DNA, one strand shown
Matrix: in vitro
Tested at: not given
Setting: 8-mer, flanks averaged, mean of 2 arrays, mostly near background
Reference: not given
Reading: higher = stronger binding
Target sequence (chain): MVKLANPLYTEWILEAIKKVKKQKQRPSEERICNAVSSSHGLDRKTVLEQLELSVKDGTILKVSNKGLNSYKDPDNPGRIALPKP
| Strand | E-score |
| --- | --- |
| ATTTATCG | 0.0831 |
| ACAGTAAG | -0.0178 |
| CAGCCTGC | -0.063 |
| CTTTGTCA | -0.0699 |
| ATAGGTGG | -0.186 |
| CACGTCAC | -0.111 |
| CCGAACAC | -0.0241 |
| CTTTTACC | -0.124 |

Study 2
Target: Sal-like protein 4, full length isoform A (SALL4, Homo sapiens, UniProt Q9UJQ4, residues 1-1053)
Chain of UniProt Q9UJQ4 (whole entry, looked up): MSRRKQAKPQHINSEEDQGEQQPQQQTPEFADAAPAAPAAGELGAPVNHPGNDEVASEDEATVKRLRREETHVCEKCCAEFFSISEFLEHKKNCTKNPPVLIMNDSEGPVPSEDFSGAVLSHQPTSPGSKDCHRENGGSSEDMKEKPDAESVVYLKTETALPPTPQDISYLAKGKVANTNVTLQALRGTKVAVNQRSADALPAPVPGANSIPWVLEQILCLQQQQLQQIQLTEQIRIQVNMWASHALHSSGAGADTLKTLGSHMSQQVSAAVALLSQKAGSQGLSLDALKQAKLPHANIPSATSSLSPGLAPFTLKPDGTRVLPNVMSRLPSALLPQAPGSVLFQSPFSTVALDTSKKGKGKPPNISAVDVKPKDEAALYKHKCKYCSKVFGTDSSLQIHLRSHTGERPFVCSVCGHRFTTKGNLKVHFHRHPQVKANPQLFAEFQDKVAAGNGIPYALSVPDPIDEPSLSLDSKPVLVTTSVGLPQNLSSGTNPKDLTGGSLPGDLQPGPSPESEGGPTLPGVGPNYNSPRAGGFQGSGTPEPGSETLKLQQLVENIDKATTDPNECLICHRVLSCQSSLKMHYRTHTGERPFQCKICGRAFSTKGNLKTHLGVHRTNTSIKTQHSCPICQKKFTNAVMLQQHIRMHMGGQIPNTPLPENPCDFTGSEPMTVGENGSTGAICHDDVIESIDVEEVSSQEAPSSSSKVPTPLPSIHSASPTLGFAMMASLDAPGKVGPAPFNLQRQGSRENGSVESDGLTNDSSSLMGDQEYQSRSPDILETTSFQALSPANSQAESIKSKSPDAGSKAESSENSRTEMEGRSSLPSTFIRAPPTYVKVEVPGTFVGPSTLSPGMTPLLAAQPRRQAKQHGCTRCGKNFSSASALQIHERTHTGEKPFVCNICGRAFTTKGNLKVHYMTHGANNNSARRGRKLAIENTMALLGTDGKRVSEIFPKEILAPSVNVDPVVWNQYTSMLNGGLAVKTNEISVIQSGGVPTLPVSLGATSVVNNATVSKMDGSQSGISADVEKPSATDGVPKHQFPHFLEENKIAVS
Method: universal PBM
Form: double-stranded DNA, one strand shown
Matrix: in vitro
Tested at: 600 nM
Setting: 8-mer, flanks averaged, mean of replicates
Reading: higher = stronger binding
| Strand | E-score |
| --- | --- |
| GCCATCTA | -0.028 |
| ATCGCCGG | -0.355 |
| CCGTCTCA | -0.151 |
| ATCGATTG | 0.151 |
| ACGCCTAG | -0.0396 |
| AAGCCACG | -0.188 |
| CTAGCCAC | -0.255 |

Study 3
Target: Ras GTPase-activating protein-binding protein 1, C-terminal RGG region (G3BP1, Homo sapiens, UniProt Q13283)
Chain of UniProt Q13283 (whole entry, looked up): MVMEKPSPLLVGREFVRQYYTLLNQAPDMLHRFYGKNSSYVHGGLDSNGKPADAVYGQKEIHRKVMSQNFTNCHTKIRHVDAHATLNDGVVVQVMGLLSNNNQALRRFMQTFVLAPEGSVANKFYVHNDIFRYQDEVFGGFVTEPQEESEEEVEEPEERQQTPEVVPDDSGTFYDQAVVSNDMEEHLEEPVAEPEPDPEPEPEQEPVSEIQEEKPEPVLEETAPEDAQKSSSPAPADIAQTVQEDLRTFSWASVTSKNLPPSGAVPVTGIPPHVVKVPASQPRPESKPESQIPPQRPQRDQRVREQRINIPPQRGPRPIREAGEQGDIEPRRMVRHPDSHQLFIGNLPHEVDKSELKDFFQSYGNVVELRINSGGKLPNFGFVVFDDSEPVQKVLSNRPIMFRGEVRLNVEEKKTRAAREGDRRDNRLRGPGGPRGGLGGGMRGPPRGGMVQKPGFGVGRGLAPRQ
Method: RNA Bind-n-Seq
Form: RNA
Matrix: in vitro
Tested at: 1 µM
Setting: whole 134-nt RNA, ends assumed
With: 150 mM KCl
Reference: input library
Reading: higher = stronger binding
| Strand | log2 enrichment |
| --- | --- |
| GGGAGUUCUACAGUCCGACGAUCCUGUGCUACACAUCGUAUGUACCGAAUCGGGGAAAAAAAGGAAAAAAAGGGGAAAAAAAGGAAAGUAUUAUGUUACGCCGUUCGGAUCUGUGGAAUUCUCGGGUGUCAAGG | -1.41 |
| GGGAGUUCUACAGUCCGACGAUCUGGCCCUGGUGGCAUGCGGGGAGGAAGAGGUGGCCUCAUGGAUCGUGGUGGUCCCGGUGGAAUGUUCAGAAGUGGCCGUGGUGGAGACAGUGGAAUUCUCGGGUGUCAAGG | 2.91 |
| GGGAGUUCUACAGUCCGACGAUCUGGCCCUGGUGGAAUGCGGGGAGGAAGAGGUGGCCUCAUGGAUCGUGGUGGUCCCGGUGGAAUGUUCAGAGGUGGCCGUGGUGGAGACAGUGGAAUUCUCGGGUGUCAAGG | 1.83 |

Further values, each from its own experiment
| Substance | target | test | test system | conditions | scale | quantity | value |
| --- | --- | --- | --- | --- | --- | --- | --- |
| PhoQ, residues 284 288 289 292 302 303 AGCYAI | PhoP, residues 12 14 15 18 19 SEGLL (Escherichia coli, UniProt P23836) | Sort-seq, measured: YFP reporter | E. coli | PhoQ-PhoP variant library, with: 10 µM Mg2+ | reference: high Mg2+ state, higher = stronger signaling | fold induction | 12 |

Repeated from above (study 2):
| Strand | E-score |
| --- | --- |
| GCCATCTA | -0.028 |
| ATCGATTG | 0.151 |
